{"data": "Assay results of several laboratories", "note": "Compare with care: the assays were run in different laboratories. ± gives the spread as reported."}
{"SMILES": "CO[C@H]1C[C@@H]2CC[C@@H](C)[C@@](O)(O2)C(=O)C(=O)N2CCCC[C@H]2C(=O)O[C@H]([C@H](C)C[C@@H]2CC[C@@H](OCCO)[C@H](OC)C2)CC(=O)[C@H](C)/C=C(\\C)[C@@H](O)[C@@H](OC)C(=O)[C@H](C)C[C@H](C)/C=C/C=C/C=C/1C", "test system": "human, plasma", "setting": "oral, 5 mg, cycle 1 day 1, single dosing, together with: vorolanib 150 mg", "Cmax": "52.6 ± 12.1 ng/mL"}
{"SMILES": "C=CC(=O)N(C)CCOc1c(N)ncnc1-c1cc(F)cc(NC(=O)c2ccc(C3CC3)cc2F)c1C", "test system": "human, whole blood", "setting": "oral, 200 mg, single ascending dose, fasted", "Cmax": "245 ng/mL"}
{"SMILES": "N#C[C@H](C[C@@H]1CCCNC1=O)NC(=O)[C@H](CC1CC1)NC(=O)c1cc2cccc(Cl)c2[nH]1", "test system": "human", "setting": "150 mg once daily, day 5", "Cmax": "1100 ng/mL"}
{"SMILES": "COc1ccc2[nH]c([S@+]([O-])Cc3ncc(C)c(OC)c3C)nc2c1", "test system": "human male, dried plasma spots", "setting": "oral, 5 mg racemic omeprazole", "Cmax": "87.1 nM"}
{"SMILES": "Cc1cc(-c2nnc(N)nc2-c2ccc(F)cc2)cc(Cl)n1", "test system": "human patients, plasma", "setting": "oral, 150 mg capsule once daily, multiple doses, arithmetic mean", "Cmax": "1510 ng/mL"}
{"SMILES": "O=C1CC[C@H](N2Cc3cc(N4CCN(CC5CCN(c6ccc([C@@H]7c8ccc(O)cc8CC[C@@H]7c7ccccc7)cc6)CC5)CC4)ccc3C2=O)C(=O)N1", "test system": "human, plasma", "setting": "oral, 200 mg, together with: dabigatran etexilate 75 mg", "Cmax": "477 ng/mL"}
{"SMILES": "C[C@H](CCC(=O)NCC(=O)O)[C@H]1CC[C@H]2[C@@H]3[C@H](O)C[C@@H]4C[C@H](O)CC[C@]4(C)[C@H]3C[C@H](O)[C@]12C", "test system": "human, plasma", "setting": "oral, dose not given", "how to read": "reference: untreated", "Cmax": "227 ± 30 nM"}
{"SMILES": "COc1cc([C@@H]2[C@H]3CO[C@@]4(O)C(=O)[C@@H]2C=C([C@H]2Oc5cc(O)cc(O)c5C(=O)[C@@H]2O)[C@@H]34)ccc1O", "test system": "OATP1B1/1B3 humanized mice, plasma", "setting": "oral gavage, 500 mg/kg silymarin", "Cmax": "140 nM"}
{"SMILES": "COc1cc(C(=O)NC2CCN(C)CC2)c(F)cc1Nc1ncc(C(F)(F)F)c(Oc2cccc3c2C(=O)N(C)C3)n1", "test system": "human, Japanese, plasma", "setting": "oral, 200 mg single dose, geometric mean", "Cmax": "1640 nM"}
{"SMILES": "COC[C@@H](c1ccc(C(F)(F)F)cc1)N1CCN(C2(C)CCN(C(=O)c3c(C)ncnc3C)CC2)C[C@@H]1C", "test system": "human", "setting": "oral, 5 mg once daily, steady state, population PK, together with: ritonavir", "Cmax": "33 ng/mL"}
{"SMILES": "CC(C)(Sc1ccncc1-c1ccc(C#N)c2ccccc12)C(=O)O", "test system": "human, plasma", "setting": "oral, 10 mg once daily, together with: febuxostat 20 mg", "Cmax": "29.5 ng/mL"}
{"SMILES": "Cc1c(OCC(F)(F)F)ccnc1C[S+]([O-])c1nc2ccccc2[nH]1 (centres unmarked)", "test system": "human, plasma", "setting": "oral, dose not given, median", "Cmax": "1600 ng/mL"}
{"SMILES": "COc1nnc2ccc(N3CCC(c4ccc(OCCN5CCN(C)C(=O)[C@H]5C)cc4)CC3)nn12", "test system": "human, plasma", "setting": "oral, 10 mg once daily, single dose, monotherapy", "Cmax": "62.9 nM"}
{"SMILES": "Nc1c2c(cc3c1CCC3)CCC2", "test system": "human, plasma", "setting": "oral, 450 mg of GDC-2394, single ascending dose", "Cmax": "21.8 ng/mL"}
{"SMILES": "Cc1cc(Nc2cc3ncccc3c(N[C@@H]3C[C@H]4CC[C@@H](C3)N4CCC#N)n2)n[nH]1", "test system": "human, plasma", "setting": "80 mg, day 14, geometric mean", "Cmax": "2.28 ng/mL"}
{"SMILES": "NC(=O)N1c2ccccc2C=Cc2ccccc21", "test system": "healthy human subjects, plasma", "setting": "oral, dose not given, day 21, twice daily, with glecaprevir and pibrentasvir", "Cmax": "7620 ng/mL"}
{"SMILES": "N#Cc1cccc(-c2ccc3ncc(-c4cc(F)cc(F)c4)c(N4CCC(N)CC4)c3c2)c1O", "test system": "male human, plasma", "setting": "oral, 20 mg single, geometric mean", "Cmax": "156 ng/mL"}
{"SMILES": "FC(F)(F)c1ccc(CNc2ccc(Cc3c[nH]c4ncc(Cl)cc34)cn2)cn1", "test": "item: total radioactivity", "test system": "healthy human male, plasma", "setting": "oral, 400 mg [14C]-labelled", "Cmax": "5590 ng/mL"}
{"SMILES": "Cc1ccc(C(=O)N(CCCN)C(c2nc3snc(C)c3c(=O)n2Cc2ccccc2)C(C)C)cc1 (centres unmarked)", "test system": "human patients, plasma", "setting": "intravenous, 13 mg/day, day 3 of induction course, geometric mean", "Cmax": "114 ng/mL"}
{"SMILES": "CC(C)NC(=O)COc1cccc(-c2nc(Nc3ccc4[nH]ncc4c3)c3ccccc3n2)c1", "test system": "human male, plasma", "setting": "oral, 200 mg, day 5, alone, adjusted geometric mean", "Cmax": "1710 ng/mL"}
{"note": "Repeated from above:"}
{"SMILES": "COc1cc([C@@H]2[C@H]3CO[C@@]4(O)C(=O)[C@@H]2C=C([C@H]2Oc5cc(O)cc(O)c5C(=O)[C@@H]2O)[C@@H]34)ccc1O", "test system": "OATP1B1/1B3 humanized mice, plasma", "setting": "oral gavage, 500 mg/kg silymarin", "Cmax": "140 nM"}
